Experimental data collected from several papers.
Each numbered part is a random draw from the data of one study; scales do not carry over between parts.
UniProt P10721, sequence (whole entry, unmodified, looked up): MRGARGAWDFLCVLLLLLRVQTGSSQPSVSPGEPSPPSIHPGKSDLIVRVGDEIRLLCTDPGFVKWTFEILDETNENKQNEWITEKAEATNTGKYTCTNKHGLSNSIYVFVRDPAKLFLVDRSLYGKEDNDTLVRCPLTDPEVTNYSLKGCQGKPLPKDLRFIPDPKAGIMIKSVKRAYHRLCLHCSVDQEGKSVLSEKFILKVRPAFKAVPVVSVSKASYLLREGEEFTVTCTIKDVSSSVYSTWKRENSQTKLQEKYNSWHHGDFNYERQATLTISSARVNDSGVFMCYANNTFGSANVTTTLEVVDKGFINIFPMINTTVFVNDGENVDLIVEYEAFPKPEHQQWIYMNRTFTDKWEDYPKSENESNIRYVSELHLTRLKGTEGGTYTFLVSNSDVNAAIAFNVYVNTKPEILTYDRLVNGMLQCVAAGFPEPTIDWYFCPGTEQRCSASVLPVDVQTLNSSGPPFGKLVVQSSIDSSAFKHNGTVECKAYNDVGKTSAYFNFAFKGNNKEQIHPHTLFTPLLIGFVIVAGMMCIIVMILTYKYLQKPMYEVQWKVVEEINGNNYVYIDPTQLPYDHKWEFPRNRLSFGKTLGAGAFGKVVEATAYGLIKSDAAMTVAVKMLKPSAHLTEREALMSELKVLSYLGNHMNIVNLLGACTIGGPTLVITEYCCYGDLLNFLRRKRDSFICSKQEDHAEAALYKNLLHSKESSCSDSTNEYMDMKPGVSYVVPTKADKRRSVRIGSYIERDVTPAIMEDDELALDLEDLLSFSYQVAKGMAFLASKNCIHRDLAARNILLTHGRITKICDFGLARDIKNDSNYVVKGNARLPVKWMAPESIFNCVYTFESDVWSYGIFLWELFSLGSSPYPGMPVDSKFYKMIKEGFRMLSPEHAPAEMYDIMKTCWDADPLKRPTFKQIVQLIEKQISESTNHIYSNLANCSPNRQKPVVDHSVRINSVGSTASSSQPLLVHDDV
UniProt O75914, sequence (whole entry, looked up): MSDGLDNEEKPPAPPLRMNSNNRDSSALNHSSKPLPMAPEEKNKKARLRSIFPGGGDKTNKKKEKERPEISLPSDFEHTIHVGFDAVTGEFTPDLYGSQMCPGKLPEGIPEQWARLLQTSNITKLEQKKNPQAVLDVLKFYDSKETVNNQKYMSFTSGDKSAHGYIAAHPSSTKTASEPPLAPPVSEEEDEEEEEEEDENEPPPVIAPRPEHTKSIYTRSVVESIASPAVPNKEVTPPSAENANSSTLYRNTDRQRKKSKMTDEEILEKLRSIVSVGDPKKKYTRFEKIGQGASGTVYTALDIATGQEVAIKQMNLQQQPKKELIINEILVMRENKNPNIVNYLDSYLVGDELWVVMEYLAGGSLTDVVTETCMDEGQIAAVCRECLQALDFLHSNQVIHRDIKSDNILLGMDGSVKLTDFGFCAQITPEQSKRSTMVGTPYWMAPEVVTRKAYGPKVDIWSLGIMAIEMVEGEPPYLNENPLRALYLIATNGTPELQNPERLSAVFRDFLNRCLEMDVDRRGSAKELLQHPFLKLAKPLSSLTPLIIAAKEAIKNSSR
UniProt Q13557, sequence (whole entry, looked up): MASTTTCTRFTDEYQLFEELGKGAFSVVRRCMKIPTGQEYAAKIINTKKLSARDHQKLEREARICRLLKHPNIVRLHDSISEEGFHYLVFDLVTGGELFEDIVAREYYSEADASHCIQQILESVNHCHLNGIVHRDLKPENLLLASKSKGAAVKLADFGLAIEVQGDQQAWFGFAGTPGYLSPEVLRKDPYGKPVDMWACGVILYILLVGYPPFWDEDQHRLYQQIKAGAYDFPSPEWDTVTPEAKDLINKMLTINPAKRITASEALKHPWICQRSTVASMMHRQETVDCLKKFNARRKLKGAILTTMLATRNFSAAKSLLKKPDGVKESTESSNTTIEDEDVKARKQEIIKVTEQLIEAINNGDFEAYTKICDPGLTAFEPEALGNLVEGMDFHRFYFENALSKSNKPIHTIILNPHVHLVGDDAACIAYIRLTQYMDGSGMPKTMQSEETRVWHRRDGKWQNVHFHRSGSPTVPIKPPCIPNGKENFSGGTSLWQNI
UniProt P07332, sequence (whole entry, looked up): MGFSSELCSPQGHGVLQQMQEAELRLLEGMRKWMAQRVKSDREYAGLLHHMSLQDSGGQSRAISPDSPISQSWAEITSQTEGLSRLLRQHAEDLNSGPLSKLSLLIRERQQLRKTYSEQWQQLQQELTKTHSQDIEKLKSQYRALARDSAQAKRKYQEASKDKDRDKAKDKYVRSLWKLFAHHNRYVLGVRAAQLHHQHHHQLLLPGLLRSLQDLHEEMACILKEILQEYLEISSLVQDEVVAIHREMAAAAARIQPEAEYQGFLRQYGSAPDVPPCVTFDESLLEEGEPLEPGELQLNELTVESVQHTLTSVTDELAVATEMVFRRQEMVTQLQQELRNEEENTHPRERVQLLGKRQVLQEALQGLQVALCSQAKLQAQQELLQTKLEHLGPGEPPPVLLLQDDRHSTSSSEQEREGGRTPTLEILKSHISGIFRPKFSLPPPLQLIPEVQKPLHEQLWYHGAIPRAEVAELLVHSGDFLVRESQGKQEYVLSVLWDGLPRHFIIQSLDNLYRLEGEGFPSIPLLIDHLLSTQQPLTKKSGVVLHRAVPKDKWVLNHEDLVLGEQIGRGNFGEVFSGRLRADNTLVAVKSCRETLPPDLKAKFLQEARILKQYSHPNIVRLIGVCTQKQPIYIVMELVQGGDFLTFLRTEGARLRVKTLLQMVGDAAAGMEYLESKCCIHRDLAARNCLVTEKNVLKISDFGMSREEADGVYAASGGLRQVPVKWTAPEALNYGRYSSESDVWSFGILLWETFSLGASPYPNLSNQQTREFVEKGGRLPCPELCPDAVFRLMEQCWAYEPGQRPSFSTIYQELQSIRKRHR
UniProt Q9Y4K4, sequence (whole entry, looked up): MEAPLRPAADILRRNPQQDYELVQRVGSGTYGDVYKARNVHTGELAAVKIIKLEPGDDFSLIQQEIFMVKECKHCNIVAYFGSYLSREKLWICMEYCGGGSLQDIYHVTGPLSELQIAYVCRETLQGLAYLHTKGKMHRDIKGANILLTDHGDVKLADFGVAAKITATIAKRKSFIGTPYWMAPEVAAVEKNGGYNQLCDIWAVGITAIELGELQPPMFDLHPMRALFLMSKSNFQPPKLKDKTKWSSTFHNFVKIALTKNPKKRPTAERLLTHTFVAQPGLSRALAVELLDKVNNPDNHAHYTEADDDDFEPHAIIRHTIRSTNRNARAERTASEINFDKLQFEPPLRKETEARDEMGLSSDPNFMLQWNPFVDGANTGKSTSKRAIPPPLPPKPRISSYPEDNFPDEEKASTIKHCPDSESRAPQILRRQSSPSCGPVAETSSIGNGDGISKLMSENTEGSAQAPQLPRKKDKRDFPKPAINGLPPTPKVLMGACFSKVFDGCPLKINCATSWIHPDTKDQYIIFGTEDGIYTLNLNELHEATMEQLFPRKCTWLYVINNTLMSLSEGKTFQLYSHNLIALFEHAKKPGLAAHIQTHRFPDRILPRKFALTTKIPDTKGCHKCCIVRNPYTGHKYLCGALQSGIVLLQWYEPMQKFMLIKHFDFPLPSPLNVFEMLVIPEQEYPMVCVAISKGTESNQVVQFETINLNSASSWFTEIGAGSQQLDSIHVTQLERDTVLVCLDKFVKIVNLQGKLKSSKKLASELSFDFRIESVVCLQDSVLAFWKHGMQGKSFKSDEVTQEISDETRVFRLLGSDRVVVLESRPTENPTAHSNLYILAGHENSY
UniProt P11309, sequence (whole entry, looked up): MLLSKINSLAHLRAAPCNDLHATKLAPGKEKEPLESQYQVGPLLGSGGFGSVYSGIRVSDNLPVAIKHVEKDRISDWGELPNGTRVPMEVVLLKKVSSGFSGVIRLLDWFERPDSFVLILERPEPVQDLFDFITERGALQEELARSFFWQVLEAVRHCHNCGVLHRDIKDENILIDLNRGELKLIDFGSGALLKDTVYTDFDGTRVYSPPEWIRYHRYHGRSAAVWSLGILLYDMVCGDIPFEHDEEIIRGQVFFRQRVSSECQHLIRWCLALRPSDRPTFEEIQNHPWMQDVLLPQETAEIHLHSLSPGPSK
UniProt Q9UIK4, sequence (whole entry, looked up): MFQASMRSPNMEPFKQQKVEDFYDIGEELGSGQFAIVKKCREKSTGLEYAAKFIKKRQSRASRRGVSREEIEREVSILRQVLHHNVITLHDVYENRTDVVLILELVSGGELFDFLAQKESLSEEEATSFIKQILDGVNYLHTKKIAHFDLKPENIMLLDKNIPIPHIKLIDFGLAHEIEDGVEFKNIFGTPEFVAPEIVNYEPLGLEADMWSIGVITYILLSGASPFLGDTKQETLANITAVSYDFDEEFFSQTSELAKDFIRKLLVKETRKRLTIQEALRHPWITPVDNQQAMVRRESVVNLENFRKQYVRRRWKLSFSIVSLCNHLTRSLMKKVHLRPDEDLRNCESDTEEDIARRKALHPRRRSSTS

Study 1 — read-out: enzyme activity; tested at: 5 µM; reference: untreated control; endpoint: remaining activity
Compound: O=C(Nc1cnn(-c2csc(C(=O)NC3COC3)c2)c1)Nc1c(F)cccc1Cl
FES (Homo sapiens, UniProt P07332): 83.9%
PRKCA (Homo sapiens, UniProt P17252): 90.3%
FLT3 (Homo sapiens, UniProt P36888): 98.7%
Aurora kinase A (AURKA, Homo sapiens, UniProt O14965): 82.1%
LYN (Homo sapiens, UniProt P07948): 93.3%
CAMK2D (Homo sapiens, UniProt Q13557): 92.9%
ACVRL1 (Homo sapiens, UniProt P37023): 119%
HASPIN (Homo sapiens, UniProt Q8TF76): 108%

Study 2 — read-out: enzyme activity; mode: inhibitor; tested at: 10 µM; endpoint: inhibition
Target: Calcium/calmodulin-dependent protein kinase type II subunit alpha (CAMK2A, Homo sapiens, UniProt Q9UQM7)
UniProt Q9UQM7, sequence (whole entry, looked up): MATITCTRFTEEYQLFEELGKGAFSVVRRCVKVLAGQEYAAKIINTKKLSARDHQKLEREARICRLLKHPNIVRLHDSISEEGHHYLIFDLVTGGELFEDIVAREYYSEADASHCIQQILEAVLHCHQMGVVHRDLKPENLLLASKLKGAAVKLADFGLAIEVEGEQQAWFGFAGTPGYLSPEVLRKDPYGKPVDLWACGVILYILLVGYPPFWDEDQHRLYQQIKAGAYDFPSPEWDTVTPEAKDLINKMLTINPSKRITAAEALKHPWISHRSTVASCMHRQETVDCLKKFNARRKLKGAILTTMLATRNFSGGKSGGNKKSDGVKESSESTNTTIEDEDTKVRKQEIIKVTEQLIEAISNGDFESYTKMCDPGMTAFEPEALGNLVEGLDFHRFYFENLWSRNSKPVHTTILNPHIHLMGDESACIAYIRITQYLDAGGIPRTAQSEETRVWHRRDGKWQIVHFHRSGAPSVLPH
CC(=O)N[C@H]1[C@H](O[C@@H]([C@H](O)[C@H](C=O)NC(C)=O)[C@H](O)CO)O[C@H](CO)[C@@H](O[C@@H]2O[C@H](CO)[C@@H](O)[C@H](O)[C@H]2NC(C)=O)[C@@H]1O: -14%
CC(C)=CCc1c(O)cc2oc3cc(O)c(O)c(CCC(C)(C)O)c3c(=O)c2c1O: -33%
Cc1onc(-c2c(Cl)cccc2Cl)c1C(=O)N[C@@H]1C(=O)N2[C@@H]1SC(C)(C)[C@@H]2C(=O)O: -11%
C/C=C(/C)C(=O)O[C@H]1[C@@H](OC(C)=O)c2c(ccc3ccc(=O)oc23)OC1(C)C: 0.01%
CCCCCCCCCCCCCCCCCCCCC: -3%
O=C(O)CCCCCCC[C@@H](O)[C@@H](O)CCCCCCO: -12%
C/C(=C\CO)CCC[C@H](C)CCC[C@H](C)CCCC(C)C: -10%
CC[C@H](C)C(=O)O[C@H]1CCC=C2C=C[C@H](C)[C@H](CC[C@@H]3C[C@@H](O)CC(=O)O3)[C@H]21: -17%
C[C@@H]1CC[C@@]2(OC1)O[C@H]1C[C@H]3[C@@H]4CC[C@H]5C[C@@H](O)CC[C@]5(C)[C@H]4CC[C@]3(C)[C@H]1[C@@H]2C: -22%

Study 3 — read-out: cell-free assay; method: competition with immobilised ligand; tested at: 1 µM; endpoint: remaining binding
SMILES: CCCCN(CCCC)C(=O)CN1C[C@@H](c2cc(OC)c3c(c2)OCO3)[C@H](C(=O)O)[C@H]1CC(C)(C)CCC
MAPK3 (Homo sapiens, UniProt P27361): 100%
CSK (Homo sapiens, UniProt P41240): 100%
STK17A (Homo sapiens, UniProt Q9UEE5): 100%
MAP3K10 (Homo sapiens, UniProt Q02779): 65.4%
KIT (Homo sapiens, UniProt P10721, L576P): 100%
MAPK10 (Homo sapiens, UniProt P53779): 100%
IRAK4 (Homo sapiens, UniProt Q9NWZ3): 94.5%
MAP3K1 (Homo sapiens, UniProt Q13233): 100%
PAK3 (Homo sapiens, UniProt O75914): 89.4%
CDK16 (Homo sapiens, UniProt Q00536): 100%
PIM1 (Homo sapiens, UniProt P11309): 91.7%
NEK11 (Homo sapiens, UniProt Q8NG66): 100%
DAPK2 (Homo sapiens, UniProt Q9UIK4): 99.6%
MAP4K5 (Homo sapiens, UniProt Q9Y4K4): 100%
MAST1 (Homo sapiens, UniProt Q9Y2H9): 100%
TLK1 (Homo sapiens, UniProt Q9UKI8): 82.4%
Mast/stem cell growth factor receptor Kit, autoinhibited (KIT, Homo sapiens, UniProt P10721): 94.9%

Study 4 — organism: Sarcocystis neurona; read-out: parasite activity; tested at: 10 µM; time: 96 h; endpoint: activity class
OC(CCN1CCCC1)(c1ccccc1)C1CCCCC1 (centres unmarked): inactive
CCCCC(=O)N(Cc1ccc(-c2ccccc2-c2nnn[nH]2)cc1)[C@H](C(=O)O)C(C)C: inactive
CCOc1cc(CC(=O)N[C@@H](CC(C)C)c2ccccc2N2CCCCC2)ccc1C(=O)O: inactive
COc1cc(C)c(/C=C/C(C)=C/C=C/C(C)=C/C(=O)O)c(C)c1C: inactive
CC(C)(C(=O)O)c1ccc(C(O)CCCN2CCC(C(O)(c3ccccc3)c3ccccc3)CC2)cc1 (centres unmarked): inactive
CCCN1CCCC[C@H]1C(=O)Nc1c(C)cccc1C: inactive
CN1CCCC(n2nc(Cc3ccc(Cl)cc3)c3ccccc3c2=O)CC1 (centres unmarked): active
CCOC(=O)[C@@]1(CCCCCCOc2ccc(Cl)cc2)CO1: inactive
NS(=O)(=O)c1cc(C(=O)O)c(NCc2ccco2)cc1Cl: inactive
Cc1ccsc1C(=CCCN1CCC[C@@H](C(=O)O)C1)c1sccc1C: inactive

Repeated from above (study 3):
CSK (Homo sapiens, UniProt P41240): 100%
STK17A (Homo sapiens, UniProt Q9UEE5): 100%
MAP3K10 (Homo sapiens, UniProt Q02779): 65.4%
KIT (Homo sapiens, UniProt P10721, L576P): 100%
